Measured values pooled from the literature.
Parts stem from different laboratories: compare values within a part only. “And” joins repeats or separate records; there may be more than shown.
Chain of UniProt P42336 (whole entry, unmodified, looked up): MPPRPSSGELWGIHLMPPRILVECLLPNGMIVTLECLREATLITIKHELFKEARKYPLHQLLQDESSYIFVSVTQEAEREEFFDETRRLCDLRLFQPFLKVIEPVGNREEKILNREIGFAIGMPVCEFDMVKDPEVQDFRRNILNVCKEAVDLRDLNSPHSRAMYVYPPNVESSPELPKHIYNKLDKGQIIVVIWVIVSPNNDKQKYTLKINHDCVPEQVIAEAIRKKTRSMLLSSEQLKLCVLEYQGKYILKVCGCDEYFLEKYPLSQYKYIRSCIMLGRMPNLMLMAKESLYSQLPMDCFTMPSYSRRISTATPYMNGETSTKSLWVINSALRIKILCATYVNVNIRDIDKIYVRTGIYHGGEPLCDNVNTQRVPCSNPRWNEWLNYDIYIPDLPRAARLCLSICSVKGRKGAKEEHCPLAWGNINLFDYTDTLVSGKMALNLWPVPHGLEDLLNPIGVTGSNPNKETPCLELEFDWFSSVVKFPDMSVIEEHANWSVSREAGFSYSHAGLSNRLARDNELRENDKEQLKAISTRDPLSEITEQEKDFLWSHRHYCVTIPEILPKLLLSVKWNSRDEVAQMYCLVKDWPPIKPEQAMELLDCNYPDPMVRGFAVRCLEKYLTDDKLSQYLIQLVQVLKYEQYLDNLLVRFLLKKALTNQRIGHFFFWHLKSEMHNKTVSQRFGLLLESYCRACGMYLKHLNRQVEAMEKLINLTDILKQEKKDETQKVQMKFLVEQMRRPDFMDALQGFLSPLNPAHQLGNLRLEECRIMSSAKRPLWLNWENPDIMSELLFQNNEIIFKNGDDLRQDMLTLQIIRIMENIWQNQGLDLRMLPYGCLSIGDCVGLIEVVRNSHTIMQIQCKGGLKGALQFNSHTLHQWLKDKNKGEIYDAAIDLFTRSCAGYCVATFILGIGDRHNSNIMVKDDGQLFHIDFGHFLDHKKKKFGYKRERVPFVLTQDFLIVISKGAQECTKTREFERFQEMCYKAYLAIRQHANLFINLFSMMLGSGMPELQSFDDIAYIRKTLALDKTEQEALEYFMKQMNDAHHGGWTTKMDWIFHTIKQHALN
Chain of UniProt P10721 (whole entry, unmodified, looked up): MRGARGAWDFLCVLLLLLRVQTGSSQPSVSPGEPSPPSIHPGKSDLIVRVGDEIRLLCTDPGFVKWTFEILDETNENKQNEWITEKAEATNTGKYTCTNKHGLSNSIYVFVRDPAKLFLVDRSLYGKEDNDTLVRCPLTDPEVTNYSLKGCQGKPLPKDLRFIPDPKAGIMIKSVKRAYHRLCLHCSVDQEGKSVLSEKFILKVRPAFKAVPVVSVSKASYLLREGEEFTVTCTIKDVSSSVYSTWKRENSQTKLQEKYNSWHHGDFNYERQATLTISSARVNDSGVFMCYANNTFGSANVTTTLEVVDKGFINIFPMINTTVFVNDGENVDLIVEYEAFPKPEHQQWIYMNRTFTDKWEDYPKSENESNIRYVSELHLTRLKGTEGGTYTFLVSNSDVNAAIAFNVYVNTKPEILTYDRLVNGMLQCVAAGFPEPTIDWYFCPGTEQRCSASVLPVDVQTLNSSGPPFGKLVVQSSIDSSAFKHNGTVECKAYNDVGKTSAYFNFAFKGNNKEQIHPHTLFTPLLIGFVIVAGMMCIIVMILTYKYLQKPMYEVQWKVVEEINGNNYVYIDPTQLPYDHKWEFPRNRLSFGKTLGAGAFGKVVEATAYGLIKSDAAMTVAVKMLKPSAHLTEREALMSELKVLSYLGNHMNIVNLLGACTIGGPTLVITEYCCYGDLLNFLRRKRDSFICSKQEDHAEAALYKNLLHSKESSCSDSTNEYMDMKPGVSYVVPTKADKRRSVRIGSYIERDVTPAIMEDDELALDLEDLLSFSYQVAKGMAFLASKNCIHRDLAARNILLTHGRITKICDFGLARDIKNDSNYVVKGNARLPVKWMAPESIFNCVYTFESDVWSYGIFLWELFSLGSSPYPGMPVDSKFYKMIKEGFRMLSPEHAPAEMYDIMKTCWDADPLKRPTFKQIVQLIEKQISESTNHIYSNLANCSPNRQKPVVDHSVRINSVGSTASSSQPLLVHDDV

Block 1
SMILES: C[C@@H]1CN(c2ccc(-c3cc(C(=O)NCCOCCOCCOCCOCCNC(=O)/C=C/c4[nH]cc(C(=O)N[C@@H](CC(N)=O)c5ccc(F)c(Cl)c5)c4-c4ccc(Cl)cc4F)ccc3F)cc2NC(=O)c2c[nH]c(=O)cc2C(F)(F)F)C[C@H](C)N1C
Observed: thermal unfolding
Technique: differential scanning fluorimetry
Concentration: 5.5 µM
Direction: higher = more unfolded
DCAF1: DDB1- and CUL4-associated factor 1 (DCAF1, Homo sapiens, UniProt Q9Y4B6)
Chain of UniProt Q9Y4B6 (whole entry, looked up): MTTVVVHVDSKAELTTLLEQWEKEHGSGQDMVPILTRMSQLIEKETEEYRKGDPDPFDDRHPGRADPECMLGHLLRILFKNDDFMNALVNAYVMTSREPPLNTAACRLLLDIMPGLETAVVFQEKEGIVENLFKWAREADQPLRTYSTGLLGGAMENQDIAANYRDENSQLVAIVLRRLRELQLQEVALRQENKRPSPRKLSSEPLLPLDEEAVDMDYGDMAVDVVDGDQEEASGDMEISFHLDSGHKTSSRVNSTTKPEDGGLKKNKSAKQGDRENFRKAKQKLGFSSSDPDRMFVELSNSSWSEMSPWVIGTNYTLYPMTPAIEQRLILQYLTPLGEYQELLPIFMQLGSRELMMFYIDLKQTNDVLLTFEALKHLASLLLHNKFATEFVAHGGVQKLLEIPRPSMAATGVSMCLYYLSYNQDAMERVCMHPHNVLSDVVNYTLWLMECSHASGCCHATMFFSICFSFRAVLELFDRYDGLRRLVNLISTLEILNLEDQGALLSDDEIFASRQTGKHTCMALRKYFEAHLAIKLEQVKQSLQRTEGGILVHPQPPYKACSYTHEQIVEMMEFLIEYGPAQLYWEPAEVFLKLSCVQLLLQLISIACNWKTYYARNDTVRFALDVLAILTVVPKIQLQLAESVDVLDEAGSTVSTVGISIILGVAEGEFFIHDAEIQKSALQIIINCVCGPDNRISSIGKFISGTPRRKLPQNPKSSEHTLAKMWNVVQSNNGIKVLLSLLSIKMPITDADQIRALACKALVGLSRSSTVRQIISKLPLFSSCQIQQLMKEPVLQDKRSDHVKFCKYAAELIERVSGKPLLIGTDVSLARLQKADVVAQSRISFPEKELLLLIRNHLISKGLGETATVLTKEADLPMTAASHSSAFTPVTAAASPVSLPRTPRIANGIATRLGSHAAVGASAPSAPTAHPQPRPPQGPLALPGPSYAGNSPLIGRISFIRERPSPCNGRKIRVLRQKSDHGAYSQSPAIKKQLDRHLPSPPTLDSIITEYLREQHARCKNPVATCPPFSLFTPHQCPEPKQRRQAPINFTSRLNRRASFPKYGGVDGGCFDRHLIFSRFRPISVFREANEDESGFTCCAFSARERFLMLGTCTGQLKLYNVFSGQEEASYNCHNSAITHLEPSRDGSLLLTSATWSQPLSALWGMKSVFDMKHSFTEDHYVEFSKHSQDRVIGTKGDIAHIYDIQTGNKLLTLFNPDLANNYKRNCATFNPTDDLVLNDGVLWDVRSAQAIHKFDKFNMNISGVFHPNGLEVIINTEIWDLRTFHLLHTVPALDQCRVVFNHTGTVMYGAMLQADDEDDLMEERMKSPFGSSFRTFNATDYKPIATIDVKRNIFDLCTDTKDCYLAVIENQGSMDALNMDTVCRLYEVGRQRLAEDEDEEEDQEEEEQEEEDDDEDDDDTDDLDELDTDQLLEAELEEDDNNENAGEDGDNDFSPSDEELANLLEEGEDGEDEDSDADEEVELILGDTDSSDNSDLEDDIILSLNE
WDR5: WD repeat-containing protein 5 (WDR5, Homo sapiens, UniProt P61964)
The “SYPRO Orange fluorescence” was 58800 a.u. (DCAF1; 65.01 °C).
For DCAF1; 81.01 °C: “SYPRO Orange fluorescence” read 44000 a.u.
It gave 21600 a.u. for “SYPRO Orange fluorescence” (WDR5; 73.21 °C).
The “SYPRO Orange fluorescence” was 12200 a.u. (DCAF1; 41.8 °C).
It gave 50500 a.u. for “SYPRO Orange fluorescence” (DCAF1; 74.61 °C).
The “SYPRO Orange fluorescence” was 18400 a.u. (WDR5; 71.41 °C).
For WDR5; 64.41 °C: “SYPRO Orange fluorescence” read 14000 a.u.
The “SYPRO Orange fluorescence” was 11700 a.u. (DCAF1; 40.4 °C).
DCAF1; 45.2 °C — “SYPRO Orange fluorescence”: 13100 a.u.
It gave 14800 a.u. for “SYPRO Orange fluorescence” (WDR5; 68.61 °C).
For DCAF1; 94.81 °C: “SYPRO Orange fluorescence” read 29900 a.u.

Block 2
Structure (SMILES): NC/C(=C\F)COc1cc(Cn2c(=S)[nH]c(=O)c3[nH]cnc32)cc(C(F)(F)F)c1
Observed: enzyme activity
Mode: inhibitor
Technique: fluorescence
MPO: Myeloperoxidase (MPO, Homo sapiens, UniProt P05164)
Chain of UniProt P05164 (whole entry, looked up): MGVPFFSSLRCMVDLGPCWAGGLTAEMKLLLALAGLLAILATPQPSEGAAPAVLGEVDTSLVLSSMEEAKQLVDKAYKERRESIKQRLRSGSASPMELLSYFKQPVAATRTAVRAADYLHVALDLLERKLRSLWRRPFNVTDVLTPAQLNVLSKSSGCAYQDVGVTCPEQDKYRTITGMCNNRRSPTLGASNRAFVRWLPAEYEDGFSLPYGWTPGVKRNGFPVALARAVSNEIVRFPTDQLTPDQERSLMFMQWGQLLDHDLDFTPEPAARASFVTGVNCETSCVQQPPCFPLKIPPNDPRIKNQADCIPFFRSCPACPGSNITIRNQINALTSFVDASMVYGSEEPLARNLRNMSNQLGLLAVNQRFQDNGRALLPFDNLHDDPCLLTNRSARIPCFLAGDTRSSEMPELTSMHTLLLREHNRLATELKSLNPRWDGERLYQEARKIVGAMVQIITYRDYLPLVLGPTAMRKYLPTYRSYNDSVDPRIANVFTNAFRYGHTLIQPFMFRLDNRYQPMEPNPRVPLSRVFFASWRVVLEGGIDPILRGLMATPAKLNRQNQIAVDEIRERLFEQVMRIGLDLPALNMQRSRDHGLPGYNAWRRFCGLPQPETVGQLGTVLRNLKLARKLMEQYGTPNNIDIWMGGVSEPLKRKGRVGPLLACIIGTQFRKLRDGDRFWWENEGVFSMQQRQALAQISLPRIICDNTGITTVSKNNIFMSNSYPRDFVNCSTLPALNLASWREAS
AOC3: Amine oxidase [copper-containing] 3 (AOC3, Homo sapiens, UniProt Q16853)
Chain of UniProt Q16853 (whole entry, looked up): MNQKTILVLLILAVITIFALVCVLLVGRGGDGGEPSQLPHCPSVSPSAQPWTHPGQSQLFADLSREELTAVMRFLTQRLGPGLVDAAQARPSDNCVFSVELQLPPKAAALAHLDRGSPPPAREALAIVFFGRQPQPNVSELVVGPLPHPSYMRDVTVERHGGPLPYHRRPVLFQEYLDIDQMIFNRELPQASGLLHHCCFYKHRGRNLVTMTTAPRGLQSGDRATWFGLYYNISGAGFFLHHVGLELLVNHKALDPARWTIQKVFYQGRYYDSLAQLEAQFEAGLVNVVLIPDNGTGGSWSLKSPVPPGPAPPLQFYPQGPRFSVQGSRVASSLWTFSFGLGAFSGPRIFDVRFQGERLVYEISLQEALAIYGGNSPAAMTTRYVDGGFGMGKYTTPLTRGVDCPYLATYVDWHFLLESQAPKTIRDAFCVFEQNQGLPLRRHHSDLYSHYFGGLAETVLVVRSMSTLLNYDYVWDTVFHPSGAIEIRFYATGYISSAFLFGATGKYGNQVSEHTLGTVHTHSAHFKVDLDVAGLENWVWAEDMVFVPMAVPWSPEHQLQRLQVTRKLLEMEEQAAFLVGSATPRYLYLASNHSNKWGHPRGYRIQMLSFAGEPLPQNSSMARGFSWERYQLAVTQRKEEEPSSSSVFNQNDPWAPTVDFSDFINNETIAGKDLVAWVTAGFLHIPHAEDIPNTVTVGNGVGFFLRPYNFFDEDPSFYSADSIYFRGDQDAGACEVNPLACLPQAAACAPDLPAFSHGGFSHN
It gave 100% for inhibition (MPO; 5 µM).
It gave 95.1% and 96.4% and 97.7% and 97.5% for inhibition (AOC3; 30 µM).
The inhibition was -0.236% and -2.87% and -1.47% and 0.311% (AOC3; 13.7 nM).
AOC3; 10 µM — inhibition: 83.3% and 93.5% and 88.7% and 94.5%.
It gave 47.3% for inhibition (MPO; 6.9 nM).
It gave 100% for inhibition (MPO; 15 µM).
The inhibition was 30.2% and 38.5% and 38.6% and 26.6% (AOC3; 1.111 µM).
It gave -4.02% and -0.0031% and -0.502% and -2.87% for inhibition (AOC3; 41.2 nM).

Block 3
SMILES: CN(C1COC1)C(C)(C)/C=C(\C#N)C(=O)N1CCC[C@H]1Cn1nc(-c2ccc(Oc3ccccc3)cc2F)c2c(N)ncnc21
Observed: kinase activity
TYRO3: Tyrosine-protein kinase receptor TYRO3 (TYRO3, Homo sapiens, UniProt Q06418)
JAK1: Tyrosine-protein kinase JAK1 (JAK1, Homo sapiens, UniProt P23458)
The inhibition was 4% (PTK2 (Homo sapiens, UniProt Q05397); 1 µM).
The inhibition was 5% (CDC42BPA (Homo sapiens, UniProt Q5VT25); 0.1 µM).
The inhibition was 91% (TEC (Homo sapiens, UniProt P42680); 1 µM).
RPS6KA6 (Homo sapiens, UniProt Q9UK32); 0.1 µM — inhibition: 3%.
It gave 1% for inhibition (MAPK1 (Homo sapiens, UniProt P28482); 0.1 µM).
The inhibition was 2% (TYRO3; 0.1 µM).
The inhibition was 2% (HIPK1 (Homo sapiens, UniProt Q86Z02); 1 µM).
It gave 2% for inhibition (KDR (Homo sapiens, UniProt P35968); 1 µM).
It gave -4% for inhibition (Cyclin-dependent kinase 3, with cyclin E (CDK3, Homo sapiens, UniProt Q00526); 0.1 µM).
The inhibition was -7% (NEK7 (Homo sapiens, UniProt Q8TDX7); 1 µM).
The inhibition was 5% (Aurora kinase B (AURKB, Homo sapiens, UniProt Q96GD4); 0.1 µM).
For PRKD1 (Homo sapiens, UniProt Q15139); 0.1 µM: inhibition read 1%.
The inhibition was 1% (TYRO3; 1 µM).
MARK4 (Homo sapiens, UniProt Q96L34); 1 µM — inhibition: 2%.
The inhibition was 3% (TAOK2 (Homo sapiens, UniProt Q9UL54); 1 µM).
The inhibition was -3% (PRKCI (Homo sapiens, UniProt P41743); 0.1 µM).
It gave 1% for inhibition (PIM3 (Homo sapiens, UniProt Q86V86); 0.1 µM).
It gave 6% for inhibition (JAK1; 1 µM).
The inhibition was 2% (EPHA2 (Homo sapiens, UniProt P29317); 0.1 µM).
The inhibition was 1% (TNIK (Homo sapiens, UniProt Q9UKE5); 0.1 µM).
For JAK1; 0.1 µM: inhibition read 9%.

Block 4
Compound: CCN1/C(=C/C=C2\CCCC(/C=C/C3=[N+](CC)c4ccccc4C3(C)C)=C2NCCCCCCCCN2CCC(Nc3nc4ccccc4n3Cc3ccc(F)cc3)CC2)C(C)(C)c2ccccc21
Cell line: U-87 MG
Concentration: concentration not given
Relative to: DMSO
The “log2 fold change” was 1.07 (measured: JMJD1C mRNA).
measured: PALLD mRNA — “log2 fold change”: -0.901.
It gave 1.86 for “log2 fold change” (measured: VEPH1 mRNA).
For measured: KCNA7 mRNA: “log2 fold change” read -2.15.
measured: SHROOM1 mRNA — “log2 fold change”: -1.03.
For measured: LHX6 mRNA: “log2 fold change” read -1.58.
measured: DBF4B mRNA — “log2 fold change”: -1.59.
measured: SOX5 mRNA — “log2 fold change”: 1.86.
For measured: SOX4 mRNA: “log2 fold change” read 1.87.
measured: E2F2 mRNA — “log2 fold change”: -2.54.
It gave 0.9 for “log2 fold change” (measured: ZNF317 mRNA).
The “log2 fold change” was -0.956 (measured: IMPDH1 mRNA).
The “log2 fold change” was -0.819 (measured: VOPP1 mRNA).
For measured: GPR84 mRNA: “log2 fold change” read 3.81.
For measured: RBM43 mRNA: “log2 fold change” read -1.02.
It gave 1 for “log2 fold change” (measured: KANSL3 mRNA).

Block 5
Host: female CD-1 mouse
Sample: plasma
Route: intravenous
Dose: 1 mg/kg
For Cc1ccc(O)c(C)c1-c1cnc2[nH]c(-c3cnc(N4CCC(CCN5CCN(c6ccc(NC7CCC(=O)NC7=O)cc6F)CC5)CC4)nc3)cc2c1C#N (centres unmarked), the clearance was 40.6 mL/min/kg.
Cc1ccc(O)c(C)c1-c1cnc2[nH]c(-c3cnc(N4CCC(CN5CCN(c6ccc7c(c6F)CN(C6CCC(=O)NC6=O)C7=O)CC5)CC4)nc3)cc2c1C#N (centres unmarked) has a clearance of 23.8 mL/min/kg.
Cc1ccc(O)c(C)c1-c1cnc2[nH]c(-c3cnc(N4CCC(CN5CCN(c6ccc7c(c6)C(=O)N(C6CCC(=O)NC6=O)C7=O)CC5)CC4)nc3)cc2c1C#N (centres unmarked) has a clearance of 40.7 mL/min/kg.
With Cc1ccc(O)c(C)c1-c1cnc2[nH]c(-c3cnc(N4CCC5(CC4)CC(N4CCN(c6ccc(N[C@H]7CCC(=O)NC7=O)cc6F)CC4)CO5)nc3)cc2c1C#N (single isomer, unassigned) the clearance was 80.2 mL/min/kg.
Cc1ccc(O)c(C)c1-c1cnc2[nH]c(-c3cnc(N4CCC(CN5CCN(c6ccc(NC7CCC(=O)NC7=O)cc6F)CC5)CC4)nc3)cc2c1C#N (centres unmarked) has a clearance of 31.9 mL/min/kg.
Cc1ccc(O)c(C)c1-c1cnc2[nH]c(-c3cnc(N4CCC(CN5CCN(c6ccc7c(c6)CN(C6CCC(=O)NC6=O)C7=O)CC5)CC4)nc3)cc2c1C#N (centres unmarked) gave a clearance of 21.7 mL/min/kg.
Cc1ccc(O)c(C)c1-c1cnc2[nH]c(-c3cnc(N4CCC(CN5CCC(c6ccc(NC7CCC(=O)NC7=O)cc6F)CC5)CC4)nc3)cc2c1C#N (centres unmarked) gave a clearance of 44.6 mL/min/kg.

Block 6
Structure (SMILES): COc1cc(-c2nc3ccc(C(=O)NCCCN(C)C)cc3n2C2CCC2)cc(OC)c1OC
Observed: binding
Technique: competition with immobilised ligand
Concentration: 1 µM
Tyrosine-protein kinase ABL1, phosphorylated (ABL1, Homo sapiens, UniProt P00519, F317L) — remaining binding: 38%.
PRKX (Homo sapiens, UniProt P51817) — remaining binding: 71%.
It gave 84% for remaining binding (MYLK3 (Homo sapiens, UniProt Q32MK0)).
For PKN2 (Homo sapiens, UniProt Q16513): remaining binding read 100%.
CDK14 (Homo sapiens, UniProt O94921) — remaining binding: 100%.
KIT (Homo sapiens, UniProt P10721, D816V) — remaining binding: 87%.
The remaining binding was 96% (KIT (Homo sapiens, UniProt P10721, D816H)).
PIK3CA (Homo sapiens, UniProt P42336, E542K) — remaining binding: 99%.
The remaining binding was 69% (MARK4 (Homo sapiens, UniProt Q96L34)).
The remaining binding was 92% (STK17B (Homo sapiens, UniProt O94768)).
RPS6KB1 (Homo sapiens, UniProt P23443) — remaining binding: 47%.
It gave 92% for remaining binding (CSF1R (Homo sapiens, UniProt P07333)).
IGF1R (Homo sapiens, UniProt P08069) — remaining binding: 96%.
NLK (Homo sapiens, UniProt Q9UBE8) — remaining binding: 94%.
DCLK3 (Homo sapiens, UniProt Q9C098) — remaining binding: 100%.
It gave 84% for remaining binding (Tyrosine-protein kinase ABL1, non-phosphorylated (ABL1, Homo sapiens, UniProt P00519, F317I)).
PRPF4B (Homo sapiens, UniProt Q13523) — remaining binding: 99%.
The remaining binding was 95% (STK32B (Homo sapiens, UniProt Q9NY57)).
For MAP3K11 (Homo sapiens, UniProt Q16584): remaining binding read 100%.
For MARK2 (Homo sapiens, UniProt Q7KZI7): remaining binding read 95%.
It gave 72% for remaining binding (PIK3CA (Homo sapiens, UniProt P42336, Q546K)).
It gave 97% for remaining binding (GRK3 (Homo sapiens, UniProt P35626)).

Block 7
Compound: O=C(Nc1ccccc1)Nc1cccc(Oc2ccc3nccn3n2)c1
Concentration: 1 µM
For MST1R (Homo sapiens, UniProt Q04912); binding: remaining binding read 100%.
It gave 100% for remaining binding (PIK3CA (Homo sapiens, UniProt P42336, Q546K); binding).
For PIK3CA (Homo sapiens, UniProt P42336, E545K); binding: remaining binding read 99%.
It gave 100% for remaining binding (ALK (Homo sapiens, UniProt Q9UM73, L1196M); binding).
For PIP5K1A (Homo sapiens, UniProt Q99755); binding: remaining binding read 91%.
EGFR (Homo sapiens, UniProt P00533, L858R/T790M); binding — remaining binding: 100%.
The remaining binding was 100% (Macrophage colony-stimulating factor 1 receptor, autoinhibited (CSF1R, Homo sapiens, UniProt P07333); binding, competition with immobilised ligand).
The remaining binding was 100% (YES1 (Homo sapiens, UniProt P07947); binding, competition with immobilised ligand).
Ribosomal protein S6 kinase alpha-1, C-terminal kinase domain (RPS6KA1, Homo sapiens, UniProt Q15418); binding, competition with immobilised ligand — remaining binding: 100%.
The remaining binding was 31% (DCLK3 (Homo sapiens, UniProt Q9C098); binding, competition with immobilised ligand).
For MATK (Homo sapiens, UniProt P42679); binding: remaining binding read 100%.
It gave 100% for remaining binding (DAPK2 (Homo sapiens, UniProt Q9UIK4); binding).
The remaining binding was 100% (BRSK1 (Homo sapiens, UniProt Q8TDC3); binding).
MARK1 (Homo sapiens, UniProt Q9P0L2); binding — remaining binding: 98%.
PRKACB (Homo sapiens, UniProt P22694); cell-free binding — remaining binding: 30%.
It gave 100% for remaining binding (PKMYT1 (Homo sapiens, UniProt Q99640); binding, competition with immobilised ligand).
CSNK1D (Homo sapiens, UniProt P48730); binding — remaining binding: 100%.
For SRMS (Homo sapiens, UniProt Q9H3Y6); cell-free binding: remaining binding read 100%.
For GSK3A (Homo sapiens, UniProt P49840); binding: remaining binding read 50%.
It gave 100% for remaining binding (GRK2 (Homo sapiens, UniProt P25098); binding).
DCLK1 (Homo sapiens, UniProt O15075); binding, competition with immobilised ligand — remaining binding: 100%.
The remaining binding was 100% (PIK3CA (Homo sapiens, UniProt P42336, H1047L); binding).

A few entries again (block 7):
For MST1R (Homo sapiens, UniProt Q04912); binding: remaining binding read 100%.
It gave 100% for remaining binding (PIK3CA (Homo sapiens, UniProt P42336, Q546K); binding).
For PIK3CA (Homo sapiens, UniProt P42336, E545K); binding: remaining binding read 99%.
It gave 100% for remaining binding (ALK (Homo sapiens, UniProt Q9UM73, L1196M); binding).
For PIP5K1A (Homo sapiens, UniProt Q99755); binding: remaining binding read 91%.
EGFR (Homo sapiens, UniProt P00533, L858R/T790M); binding — remaining binding: 100%.
The remaining binding was 100% (Macrophage colony-stimulating factor 1 receptor, autoinhibited (CSF1R, Homo sapiens, UniProt P07333); binding, competition with immobilised ligand).
The remaining binding was 100% (YES1 (Homo sapiens, UniProt P07947); binding, competition with immobilised ligand).
Ribosomal protein S6 kinase alpha-1, C-terminal kinase domain (RPS6KA1, Homo sapiens, UniProt Q15418); binding, competition with immobilised ligand — remaining binding: 100%.
The remaining binding was 31% (DCLK3 (Homo sapiens, UniProt Q9C098); binding, competition with immobilised ligand).
For MATK (Homo sapiens, UniProt P42679); binding: remaining binding read 100%.
It gave 100% for remaining binding (DAPK2 (Homo sapiens, UniProt Q9UIK4); binding).
The remaining binding was 100% (BRSK1 (Homo sapiens, UniProt Q8TDC3); binding).
MARK1 (Homo sapiens, UniProt Q9P0L2); binding — remaining binding: 98%.
PRKACB (Homo sapiens, UniProt P22694); cell-free binding — remaining binding: 30%.
